Assay results pooled from the literature.
Parts stem from different laboratories: compare values within a part only. Several values in a cell are separate wells, animals, samples, runs or records. pKi: −log10 of the molar value.
Chain of UniProt P05771 (whole entry, looked up): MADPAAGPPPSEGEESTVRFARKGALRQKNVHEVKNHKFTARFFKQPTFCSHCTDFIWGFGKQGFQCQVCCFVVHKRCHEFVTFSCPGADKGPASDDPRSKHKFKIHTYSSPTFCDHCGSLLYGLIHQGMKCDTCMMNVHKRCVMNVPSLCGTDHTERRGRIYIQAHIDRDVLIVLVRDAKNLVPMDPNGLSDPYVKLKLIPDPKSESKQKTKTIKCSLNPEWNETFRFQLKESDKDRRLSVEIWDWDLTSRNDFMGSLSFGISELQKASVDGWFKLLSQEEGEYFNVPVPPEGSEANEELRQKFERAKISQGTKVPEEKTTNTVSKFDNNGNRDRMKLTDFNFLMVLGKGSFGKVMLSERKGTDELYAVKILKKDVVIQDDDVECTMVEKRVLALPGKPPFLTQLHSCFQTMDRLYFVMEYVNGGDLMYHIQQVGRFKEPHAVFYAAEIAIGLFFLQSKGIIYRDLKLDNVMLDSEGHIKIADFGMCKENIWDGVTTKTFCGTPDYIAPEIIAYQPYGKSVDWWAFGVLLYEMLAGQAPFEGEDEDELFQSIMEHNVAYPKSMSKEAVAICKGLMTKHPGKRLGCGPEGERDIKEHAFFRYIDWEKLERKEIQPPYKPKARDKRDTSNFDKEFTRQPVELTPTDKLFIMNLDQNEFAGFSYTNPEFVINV
Chain of UniProt P29322 (whole entry, looked up): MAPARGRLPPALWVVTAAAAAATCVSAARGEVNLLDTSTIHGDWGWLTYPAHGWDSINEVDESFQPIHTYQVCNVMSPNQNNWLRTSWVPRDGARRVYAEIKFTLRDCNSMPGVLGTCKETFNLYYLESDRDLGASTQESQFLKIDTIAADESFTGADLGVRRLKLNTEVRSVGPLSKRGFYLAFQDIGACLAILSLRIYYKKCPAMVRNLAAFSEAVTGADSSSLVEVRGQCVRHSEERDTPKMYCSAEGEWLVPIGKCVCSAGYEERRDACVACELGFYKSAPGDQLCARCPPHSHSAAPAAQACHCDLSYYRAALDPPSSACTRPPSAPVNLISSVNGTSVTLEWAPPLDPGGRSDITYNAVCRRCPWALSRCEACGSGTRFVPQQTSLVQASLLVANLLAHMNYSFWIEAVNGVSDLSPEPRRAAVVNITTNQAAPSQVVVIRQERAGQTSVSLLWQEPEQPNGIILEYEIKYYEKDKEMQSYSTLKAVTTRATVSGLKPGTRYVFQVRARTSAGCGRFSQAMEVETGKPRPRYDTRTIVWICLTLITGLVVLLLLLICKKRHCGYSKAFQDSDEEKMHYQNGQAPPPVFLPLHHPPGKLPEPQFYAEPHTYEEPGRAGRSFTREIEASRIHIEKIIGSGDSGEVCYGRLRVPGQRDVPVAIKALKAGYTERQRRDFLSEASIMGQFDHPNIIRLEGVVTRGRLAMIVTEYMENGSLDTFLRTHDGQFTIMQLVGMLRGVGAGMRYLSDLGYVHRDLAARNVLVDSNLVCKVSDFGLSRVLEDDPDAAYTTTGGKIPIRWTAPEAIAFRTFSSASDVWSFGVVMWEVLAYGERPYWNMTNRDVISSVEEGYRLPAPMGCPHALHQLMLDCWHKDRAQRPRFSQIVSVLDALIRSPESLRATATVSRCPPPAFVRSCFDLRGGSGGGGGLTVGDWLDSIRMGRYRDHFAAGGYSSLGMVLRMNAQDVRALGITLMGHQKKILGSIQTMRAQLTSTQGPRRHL
Chain of UniProt Q9BZL6 (whole entry, looked up): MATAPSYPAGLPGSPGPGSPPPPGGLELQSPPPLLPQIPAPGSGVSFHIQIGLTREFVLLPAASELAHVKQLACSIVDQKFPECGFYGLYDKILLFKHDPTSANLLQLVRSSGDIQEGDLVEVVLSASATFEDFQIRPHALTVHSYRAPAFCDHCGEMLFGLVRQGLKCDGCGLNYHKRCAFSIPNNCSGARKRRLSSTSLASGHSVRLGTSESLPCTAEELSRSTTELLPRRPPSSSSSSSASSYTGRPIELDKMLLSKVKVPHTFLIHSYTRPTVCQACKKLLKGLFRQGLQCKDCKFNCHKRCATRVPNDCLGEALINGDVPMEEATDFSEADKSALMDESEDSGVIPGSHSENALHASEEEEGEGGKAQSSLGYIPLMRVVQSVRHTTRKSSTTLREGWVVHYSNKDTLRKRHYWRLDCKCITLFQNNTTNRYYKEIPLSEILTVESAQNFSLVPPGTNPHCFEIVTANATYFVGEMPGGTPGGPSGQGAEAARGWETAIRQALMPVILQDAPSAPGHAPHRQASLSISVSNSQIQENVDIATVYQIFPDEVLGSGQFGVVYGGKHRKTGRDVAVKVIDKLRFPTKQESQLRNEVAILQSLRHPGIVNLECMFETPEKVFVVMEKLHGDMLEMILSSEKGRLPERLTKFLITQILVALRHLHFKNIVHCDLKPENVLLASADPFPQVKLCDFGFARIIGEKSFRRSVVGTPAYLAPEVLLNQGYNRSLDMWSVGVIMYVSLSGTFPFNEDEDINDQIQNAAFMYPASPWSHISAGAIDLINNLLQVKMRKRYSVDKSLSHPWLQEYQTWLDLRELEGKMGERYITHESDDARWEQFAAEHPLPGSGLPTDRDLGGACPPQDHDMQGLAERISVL
Chain of UniProt Q96KB5 (whole entry, looked up): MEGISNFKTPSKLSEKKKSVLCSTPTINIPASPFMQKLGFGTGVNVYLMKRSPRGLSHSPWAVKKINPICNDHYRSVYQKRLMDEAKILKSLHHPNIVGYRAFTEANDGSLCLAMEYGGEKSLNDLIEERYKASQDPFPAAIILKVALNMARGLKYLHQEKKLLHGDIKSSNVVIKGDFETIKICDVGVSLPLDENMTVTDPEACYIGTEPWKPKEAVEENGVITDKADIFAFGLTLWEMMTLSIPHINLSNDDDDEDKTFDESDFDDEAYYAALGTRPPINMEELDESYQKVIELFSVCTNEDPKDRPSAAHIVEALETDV
Chain of UniProt P62344 (whole entry, looked up): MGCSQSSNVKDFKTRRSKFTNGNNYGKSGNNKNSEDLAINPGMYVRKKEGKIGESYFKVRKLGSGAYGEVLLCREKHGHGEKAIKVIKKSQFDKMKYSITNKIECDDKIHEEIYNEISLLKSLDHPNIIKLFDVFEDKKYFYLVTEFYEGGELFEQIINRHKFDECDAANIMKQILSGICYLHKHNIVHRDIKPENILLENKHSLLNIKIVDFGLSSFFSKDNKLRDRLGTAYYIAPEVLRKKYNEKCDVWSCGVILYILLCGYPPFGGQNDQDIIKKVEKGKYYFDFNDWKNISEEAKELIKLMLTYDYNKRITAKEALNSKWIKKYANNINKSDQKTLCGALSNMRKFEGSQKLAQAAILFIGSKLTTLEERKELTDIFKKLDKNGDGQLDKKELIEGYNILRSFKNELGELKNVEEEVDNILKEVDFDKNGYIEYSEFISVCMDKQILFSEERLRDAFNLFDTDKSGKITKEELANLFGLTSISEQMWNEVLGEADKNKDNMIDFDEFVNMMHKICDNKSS
Chain of UniProt Q8TDX7 (whole entry, looked up): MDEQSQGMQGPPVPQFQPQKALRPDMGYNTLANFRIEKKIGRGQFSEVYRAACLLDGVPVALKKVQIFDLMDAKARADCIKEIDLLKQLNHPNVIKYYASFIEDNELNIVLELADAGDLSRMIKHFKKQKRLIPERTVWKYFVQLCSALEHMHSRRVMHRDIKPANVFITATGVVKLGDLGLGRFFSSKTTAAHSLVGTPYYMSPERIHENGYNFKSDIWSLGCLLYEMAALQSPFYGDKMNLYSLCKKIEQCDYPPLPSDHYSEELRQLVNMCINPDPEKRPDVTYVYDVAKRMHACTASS
Chain of UniProt P45983 (whole entry, looked up): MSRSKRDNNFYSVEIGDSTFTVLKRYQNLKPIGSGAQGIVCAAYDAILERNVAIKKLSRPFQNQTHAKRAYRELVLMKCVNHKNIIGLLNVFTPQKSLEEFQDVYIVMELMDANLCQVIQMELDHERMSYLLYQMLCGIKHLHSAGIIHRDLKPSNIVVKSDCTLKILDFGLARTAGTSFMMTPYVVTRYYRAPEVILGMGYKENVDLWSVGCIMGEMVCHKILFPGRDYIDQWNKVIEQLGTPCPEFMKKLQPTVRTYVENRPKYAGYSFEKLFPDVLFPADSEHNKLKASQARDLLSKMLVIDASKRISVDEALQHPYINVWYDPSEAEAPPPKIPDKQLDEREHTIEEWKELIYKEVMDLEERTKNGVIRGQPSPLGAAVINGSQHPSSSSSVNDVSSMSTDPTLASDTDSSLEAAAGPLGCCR
Chain of UniProt Q9H1R3 (whole entry, looked up): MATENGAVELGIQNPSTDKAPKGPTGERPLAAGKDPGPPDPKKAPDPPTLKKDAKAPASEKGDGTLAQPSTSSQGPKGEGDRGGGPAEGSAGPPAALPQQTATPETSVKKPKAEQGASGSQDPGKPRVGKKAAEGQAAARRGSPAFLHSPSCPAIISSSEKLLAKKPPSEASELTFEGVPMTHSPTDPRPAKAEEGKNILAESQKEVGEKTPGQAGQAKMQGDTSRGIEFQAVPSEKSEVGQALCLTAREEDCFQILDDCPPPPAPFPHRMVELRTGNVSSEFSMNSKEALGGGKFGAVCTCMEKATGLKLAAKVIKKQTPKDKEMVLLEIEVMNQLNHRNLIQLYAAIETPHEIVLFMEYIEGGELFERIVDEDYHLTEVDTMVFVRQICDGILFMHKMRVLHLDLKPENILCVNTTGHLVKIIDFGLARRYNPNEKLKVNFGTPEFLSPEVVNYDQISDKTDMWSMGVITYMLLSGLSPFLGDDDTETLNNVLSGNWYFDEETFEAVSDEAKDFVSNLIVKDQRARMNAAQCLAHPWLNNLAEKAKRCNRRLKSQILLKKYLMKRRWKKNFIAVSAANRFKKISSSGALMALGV

Set 1
Structure (SMILES): COC[C@H]1OC(=O)c2coc3c2[C@@]1(C)C1=C(C3=O)[C@@H]2CCC(=O)[C@@]2(C)C[C@H]1OC(C)=O
Read-out: enzyme activity
Mode: inhibitor
Concentration: 0.5 µM
Baseline: control
| target | remaining activity [%] |
| --- | --- |
| Serine/threonine-protein kinase 26 (STK26, Homo sapiens, UniProt Q9P289) | 95.8 |
| Serine/threonine-protein kinase D2 (PRKD2, Homo sapiens, UniProt Q9BZL6) | 96.6 |
| Ephrin type-A receptor 8 (EPHA8, Homo sapiens, UniProt P29322) | 96.4 |
| Mitogen-activated protein kinase 8 (MAPK8, Homo sapiens, UniProt P45983) | 98.7 |
| Protein kinase C beta type, isoform beta-II (PRKCB, Homo sapiens, UniProt P05771) | 117 |
| Ephrin type-A receptor 1 (EPHA1, Homo sapiens, UniProt P21709) | 98.3 |
| Serine/threonine-protein kinase Nek7 (NEK7, Homo sapiens, UniProt Q8TDX7) | 108 |
| Lymphokine-activated killer T-cell-originated protein kinase (PBK, Homo sapiens, UniProt Q96KB5) | 104 |
| Myosin light chain kinase 2, skeletal/cardiac muscle (MYLK2, Homo sapiens, UniProt Q9H1R3) | 95.9 |

Set 2
Structure (SMILES): CCCCC[C@@H](O)CC(=O)N[C@H]1COC(=O)[C@H](CO)NC(=O)CNC(=O)[C@H]([C@@H](C)O)NC(=O)[C@H](Cc2ccccc2)NC(=O)[C@@H](Cc2c[nH]c3ccccc23)NC(=O)[C@@H]([C@H](C)O)NC(=O)[C@H](CC(N)=O)NC(=O)[C@@H]([C@H](C)O)NC(=O)[C@H](CC(C)C)NC(=O)[C@@H](Cc2c[nH]c3ccccc23)N(C)C(=O)CNC(=O)[C@H](CO)NC(=O)[C@@H](CO)NC1=O
Organism: Staphylococcus aureus
Strain: USA300
Concentration: 2 x MIC
| time | viable cells |
| --- | --- |
| 60 min | 1000 CFU/mL and 700 CFU/mL and 600 CFU/mL |
| 180 min | 500 CFU/mL and 700 CFU/mL and 400 CFU/mL |
| 360 min | 400 CFU/mL and 200 CFU/mL |
| 0 min | 3.9e+08 CFU/mL and 4e+08 CFU/mL and 4.6e+08 CFU/mL |

Set 3
Cell line: Huh-7
Concentration: 10 µM
Time: 24 h
| SMILES | viability [%] |
| --- | --- |
| CCC1(c2ccc(N)cc2)CCC(=O)NC1=O (stereo not drawn) | 97.4 |
| CCCC(C)C1(CC)C(=O)NC(=S)NC1=O (stereo not drawn) | 103 |
| C[N+]1(C)[C@@H]2CC[C@H]1C[C@@H](OC(=O)C(CO)c1ccccc1)C2 (stereo partly drawn) | 99.1 |
| CC(C)C[C@H](CN)CC(=O)O | 99 |

Single results of other studies
CRK2: Cyclin-dependent kinase 2 homolog (CRK2, Plasmodium falciparum, UniProt P61075)
Chain of UniProt P61075 (whole entry, looked up): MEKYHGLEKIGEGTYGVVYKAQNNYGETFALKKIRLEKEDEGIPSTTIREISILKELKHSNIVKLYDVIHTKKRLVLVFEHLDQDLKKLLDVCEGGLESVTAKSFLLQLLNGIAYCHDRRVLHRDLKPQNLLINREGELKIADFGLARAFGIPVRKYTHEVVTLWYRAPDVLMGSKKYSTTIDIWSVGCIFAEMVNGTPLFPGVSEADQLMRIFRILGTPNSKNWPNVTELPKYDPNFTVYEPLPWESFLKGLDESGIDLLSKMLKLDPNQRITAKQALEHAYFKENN
| SMILES | target | read-out | technique | concentration | endpoint | value |
| --- | --- | --- | --- | --- | --- | --- |
| CN(C)C(=O)Cn1cc(-c2nc(C3(c4ccc(-c5cnc(N)nc5)cc4)CC3)no2)cn1 | CRK2 | cell-free assay | competition with immobilised ligand | 1 µM | remaining binding | 100% |
| N#Cc1ccc(Nc2ccc3[nH]c(=O)[nH]c3c2)c(Cl)c1 | CRK2 | cell-free assay | competition with immobilised ligand | 1 µM | remaining binding | 100% |
| CCS(=O)(=O)c1cc2cc(C[C@@](O)(CC(C)(C)c3ccc(F)cc3C(N)=O)C(F)(F)F)[nH]c2cn1 | Calcium-dependent protein kinase 1 (CDPK1, Plasmodium falciparum, UniProt P62344) | cell-free assay | competition with immobilised ligand | 1 µM | remaining binding | 99% |
| COc1cccc(NC(=O)c2nc3scc(CN(C)Cc4ccccc4)c3c(=O)[nH]2)c1 | Sodium-dependent serotonin transporter (SLC6A4, Homo sapiens, UniProt P31645) | binding | radioligand binding |  | pKi | 6.08 |
